# Assay results pooled from the literature.
# Parts stem from different laboratories: compare values within a part only. Several values in a cell are separate wells, animals, samples, runs or records.
# Chain of UniProt Q15418 (whole entry, looked up): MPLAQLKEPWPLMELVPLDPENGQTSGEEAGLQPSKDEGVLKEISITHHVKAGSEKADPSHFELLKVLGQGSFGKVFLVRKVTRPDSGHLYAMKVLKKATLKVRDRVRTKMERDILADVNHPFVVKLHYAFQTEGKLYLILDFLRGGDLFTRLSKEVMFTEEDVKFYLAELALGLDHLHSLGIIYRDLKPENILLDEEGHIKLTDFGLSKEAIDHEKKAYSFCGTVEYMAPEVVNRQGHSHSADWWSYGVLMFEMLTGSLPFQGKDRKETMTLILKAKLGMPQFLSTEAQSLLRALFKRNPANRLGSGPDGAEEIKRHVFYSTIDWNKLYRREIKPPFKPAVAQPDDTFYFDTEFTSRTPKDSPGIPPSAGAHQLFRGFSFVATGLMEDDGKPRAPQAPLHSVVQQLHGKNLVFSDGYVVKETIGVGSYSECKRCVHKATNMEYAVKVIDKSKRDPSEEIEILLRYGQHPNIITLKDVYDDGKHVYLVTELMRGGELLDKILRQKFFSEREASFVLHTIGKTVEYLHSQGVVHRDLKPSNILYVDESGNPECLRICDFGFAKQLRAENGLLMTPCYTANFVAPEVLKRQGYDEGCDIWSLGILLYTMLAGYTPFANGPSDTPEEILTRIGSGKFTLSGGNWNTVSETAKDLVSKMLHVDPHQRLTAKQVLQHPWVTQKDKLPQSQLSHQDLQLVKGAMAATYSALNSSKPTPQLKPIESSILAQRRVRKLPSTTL
# Chain of UniProt Q6PHR2 (whole entry, looked up): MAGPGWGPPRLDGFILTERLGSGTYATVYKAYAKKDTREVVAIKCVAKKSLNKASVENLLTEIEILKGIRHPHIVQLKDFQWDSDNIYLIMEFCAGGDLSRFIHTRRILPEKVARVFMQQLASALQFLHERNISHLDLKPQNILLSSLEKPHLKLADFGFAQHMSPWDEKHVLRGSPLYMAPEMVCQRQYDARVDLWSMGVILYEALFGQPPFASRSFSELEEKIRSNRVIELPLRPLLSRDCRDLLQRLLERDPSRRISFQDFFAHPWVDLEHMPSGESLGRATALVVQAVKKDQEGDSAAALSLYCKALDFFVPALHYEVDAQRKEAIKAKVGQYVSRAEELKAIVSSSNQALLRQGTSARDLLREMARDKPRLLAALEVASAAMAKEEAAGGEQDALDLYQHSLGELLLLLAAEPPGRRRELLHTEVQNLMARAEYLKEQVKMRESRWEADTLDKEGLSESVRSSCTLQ
# Chain of UniProt O15530 (whole entry, looked up): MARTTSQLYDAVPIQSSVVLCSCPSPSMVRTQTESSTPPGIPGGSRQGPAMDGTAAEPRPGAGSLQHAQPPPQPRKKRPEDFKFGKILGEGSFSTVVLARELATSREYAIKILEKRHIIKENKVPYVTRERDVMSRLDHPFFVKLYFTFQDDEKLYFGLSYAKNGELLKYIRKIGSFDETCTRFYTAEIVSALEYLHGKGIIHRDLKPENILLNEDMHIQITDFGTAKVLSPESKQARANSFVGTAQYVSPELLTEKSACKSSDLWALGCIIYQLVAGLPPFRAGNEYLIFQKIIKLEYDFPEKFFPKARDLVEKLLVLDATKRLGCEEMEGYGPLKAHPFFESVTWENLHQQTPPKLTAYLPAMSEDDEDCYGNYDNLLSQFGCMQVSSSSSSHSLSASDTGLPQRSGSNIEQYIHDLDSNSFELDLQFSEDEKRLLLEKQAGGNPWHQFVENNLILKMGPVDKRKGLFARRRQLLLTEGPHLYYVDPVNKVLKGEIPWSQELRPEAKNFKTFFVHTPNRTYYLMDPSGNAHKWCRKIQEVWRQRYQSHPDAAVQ
# Chain of UniProt P49336 (whole entry, looked up): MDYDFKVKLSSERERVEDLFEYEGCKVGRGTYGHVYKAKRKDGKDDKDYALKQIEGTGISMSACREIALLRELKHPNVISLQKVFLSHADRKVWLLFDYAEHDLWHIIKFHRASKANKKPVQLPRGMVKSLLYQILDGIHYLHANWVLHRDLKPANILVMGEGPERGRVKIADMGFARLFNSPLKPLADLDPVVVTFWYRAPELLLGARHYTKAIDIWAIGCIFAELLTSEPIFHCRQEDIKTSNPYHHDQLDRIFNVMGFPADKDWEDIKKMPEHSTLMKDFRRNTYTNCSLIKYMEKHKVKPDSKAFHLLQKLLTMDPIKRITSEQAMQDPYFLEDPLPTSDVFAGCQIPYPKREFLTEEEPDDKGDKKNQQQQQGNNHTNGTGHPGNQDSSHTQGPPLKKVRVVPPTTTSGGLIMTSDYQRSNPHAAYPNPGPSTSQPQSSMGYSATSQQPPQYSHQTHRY
# Chain of UniProt Q96PN8 (whole entry, looked up): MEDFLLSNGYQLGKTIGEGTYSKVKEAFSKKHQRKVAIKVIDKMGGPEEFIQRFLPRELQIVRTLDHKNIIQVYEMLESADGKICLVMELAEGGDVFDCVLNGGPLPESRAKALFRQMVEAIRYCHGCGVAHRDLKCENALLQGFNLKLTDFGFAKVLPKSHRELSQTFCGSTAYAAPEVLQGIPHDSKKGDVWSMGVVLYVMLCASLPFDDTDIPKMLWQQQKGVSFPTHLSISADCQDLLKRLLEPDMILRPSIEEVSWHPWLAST

# Block 1 — cell line: mouse MPNST tumor cells; technique: high-content immunofluorescence imaging; measured: nuclear SOX9; concentration: 10 µM; time: 12 h; setting: mean of 2 replicates; relative to: DMSO control; reading: higher = more nuclear SOX9
Compound,nuclear SOX9 intensity
CC(C(O)c1ccc(O)cc1)N1CCC(Cc2ccccc2)CC1 (centres unmarked),144 % of DMSO
NNC(=O)CSc1nc2scc(-c3ccccc3)c2c(=O)n1-c1ccccc1,110 % of DMSO
CN(CCOc1ccc(-c2ccc3c(c2)OCO3)cc1C(C)(C)C)CC(=O)O,101 % of DMSO
Oc1nc(-c2ccc(C(F)(F)F)cc2)nc2c1CSCC2,78.2 % of DMSO
CCCC1C(=O)N2C(N(C)C)=Nc3ccc(C)cc3N2C1=O (centres unmarked),94.1 % of DMSO
COc1cc2ncnc(Nc3ccc(F)c(Cl)c3)c2cc1OCCCN1CCOCC1,229 % of DMSO and 197 % of DMSO and 201 % of DMSO
Cc1ccc([N+](=O)[O-])cc1S(=O)(=O)n1c(C)nc2ccccc21,106 % of DMSO
CCCc1c(-c2ccc(O)cc2)nn(-c2ccc(O)cc2)c1-c1ccc(O)cc1,97.2 % of DMSO
NC(=O)N1c2ccccc2CC(=O)c2ccccc21,119 % of DMSO
Cc1cc(NC(=O)Nc2ccc3c(ccn3C)c2)sn1,112 % of DMSO
Cc1ccccc1OCC(O)CO (centres unmarked),99.6 % of DMSO
CCCCOc1ccc(OCCCN2CCOCC2)cc1,115 % of DMSO
COc1cc(C)c(Sc2cnc(NC(=O)c3ccc(CNC(C)C(C)(C)C)cc3)s2)cc1C(=O)N1CCN(C(C)=O)CC1 (centres unmarked),214 % of DMSO

# Block 2 — read-out: enzyme activity; mode: inhibitor; concentration: 0.5 µM; relative to: control
# Target: Insulin-like growth factor 1 receptor (IGF1R, Homo sapiens, UniProt P08069)
# Chain of UniProt P08069 (whole entry, looked up): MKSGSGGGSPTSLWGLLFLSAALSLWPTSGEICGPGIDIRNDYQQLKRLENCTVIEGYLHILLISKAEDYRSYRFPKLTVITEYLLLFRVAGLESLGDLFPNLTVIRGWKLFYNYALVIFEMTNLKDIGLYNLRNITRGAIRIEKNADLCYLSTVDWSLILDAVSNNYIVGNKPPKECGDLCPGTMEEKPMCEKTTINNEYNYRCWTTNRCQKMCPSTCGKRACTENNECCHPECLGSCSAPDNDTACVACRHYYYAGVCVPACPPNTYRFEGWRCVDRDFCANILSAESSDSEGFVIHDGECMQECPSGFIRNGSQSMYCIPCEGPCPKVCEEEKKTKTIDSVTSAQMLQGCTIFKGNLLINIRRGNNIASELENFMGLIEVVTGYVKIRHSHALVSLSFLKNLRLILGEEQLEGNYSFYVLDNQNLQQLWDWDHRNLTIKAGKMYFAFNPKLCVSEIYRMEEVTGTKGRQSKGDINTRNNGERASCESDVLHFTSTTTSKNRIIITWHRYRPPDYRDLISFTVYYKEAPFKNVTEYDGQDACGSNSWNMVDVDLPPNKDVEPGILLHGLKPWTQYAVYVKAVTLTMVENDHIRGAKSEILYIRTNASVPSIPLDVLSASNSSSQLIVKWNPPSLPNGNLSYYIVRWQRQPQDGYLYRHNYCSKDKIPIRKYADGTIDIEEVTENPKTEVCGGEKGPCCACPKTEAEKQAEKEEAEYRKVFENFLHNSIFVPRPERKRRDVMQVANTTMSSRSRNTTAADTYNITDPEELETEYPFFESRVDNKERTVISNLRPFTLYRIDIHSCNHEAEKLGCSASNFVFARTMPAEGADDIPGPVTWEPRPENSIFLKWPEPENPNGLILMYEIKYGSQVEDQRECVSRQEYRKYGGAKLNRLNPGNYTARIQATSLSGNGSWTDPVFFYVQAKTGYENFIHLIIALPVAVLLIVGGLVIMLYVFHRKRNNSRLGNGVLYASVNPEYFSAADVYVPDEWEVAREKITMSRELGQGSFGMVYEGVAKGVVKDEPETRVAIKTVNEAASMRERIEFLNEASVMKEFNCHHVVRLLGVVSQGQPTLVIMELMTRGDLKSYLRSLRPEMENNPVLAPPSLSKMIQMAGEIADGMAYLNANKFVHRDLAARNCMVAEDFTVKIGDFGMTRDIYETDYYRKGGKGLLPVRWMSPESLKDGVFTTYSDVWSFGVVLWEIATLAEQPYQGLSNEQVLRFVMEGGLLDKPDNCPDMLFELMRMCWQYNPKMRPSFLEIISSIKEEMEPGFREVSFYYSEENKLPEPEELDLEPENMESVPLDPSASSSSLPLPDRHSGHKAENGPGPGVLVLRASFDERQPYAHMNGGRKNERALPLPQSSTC
SMILES,remaining activity [%]
COc1cc2c(cc1OC)-c1[nH]nc(Nc3cccc(F)c3)c1C2,93.9
N#C/C(=C\c1ccc(O)c(O)c1)C(=O)NCc1ccccc1,85.1
CN(C)C[C@H]1CCn2c(c(C3=C(c4cn(C)c5ccccc45)C(=O)NC3=O)c3ccccc32)C1,101
COc1cc2ncnc(Nc3cccc(Cl)c3)c2cc1OC,75.9
O=C1c2ccccc2-c2n[nH]c3cccc1c23,94.9
C[C@@H]1CCN(C(=O)CC#N)C[C@@H]1N(C)c1ncnc2[nH]ccc12,93.1
c1ccc(-c2cnc(Nc3ccc(OCCN4CCCC4)cc3)s2)cc1,112
Ic1cccc(CSc2nnc(-c3ccncc3)o2)c1,99.1
Nc1cccc(-c2cc3c(Oc4cccc(O)c4)ncnc3[nH]2)c1,99.5
CCN(CC)C(=O)c1ccc(Nc2nc(OCC3CCCCC3)c3[nH]cnc3n2)cc1,28.4
Cc1nc2cc3nc(-c4cccs4)cnc3cc2n1C,96.4
O=C(Nc1cccc(Nc2nccc(Nc3cccc(C(F)(F)F)c3)n2)c1)C1CC1,95.7
CCN(CC)CCNC(=O)c1c(C)[nH]c(/C=C2\C(=O)Nc3ccc(F)cc32)c1C,62.6
O=c1cc(-c2cccc3c2Sc2ccccc2S3)oc(N2CCOCC2)c1,98.2
COc1cc2ncnc(Nc3ccc(O)c(Br)c3)c2cc1OC,104
CCN(CC)CCNC(=O)c1c(C)[nH]c(/C=C2\C(=O)Nc3ccc(Cl)cc32)c1C,35.2
O=C1C(Cl)=C(N2C(=O)CCC2=O)C(=O)c2ccccc21,107
O=C(NC(NC(=S)Nc1ccc(F)c([N+](=O)[O-])c1)C(Cl)(Cl)Cl)C(c1ccccc1)c1ccccc1 (centres unmarked),93.7
Cc1cc2ncc(-c3ccccc3)nc2cc1C,86.8
CCOc1nc(NC(=O)Cc2cc(OC)ccc2OC)cc(N)c1C#N,105
Cn1nc2c3c(cccc31)C(=O)c1ccccc1-2,95.9
c1ccc(-c2[nH]ncc2-c2ccnc3ccccc23)nc1,102

# Block 3 — host: human; sample: microsomes or S9; concentration: 2 µM; time: 0.5 h
SMILES,remaining compound [%]
COc1cc(CNCCN(C)C)c(Cl)cc1OCc1ccccc1,45.2
Nc1c(C(=O)c2ccc[nH]2)cnn1-c1ccc(F)cc1,12.8
C=CCC(C)(NCc1ccccc1)c1ccccc1 (centres unmarked),44.4
CCCc1cc(=O)n2ncc(-c3ccc(Cl)cc3)c2[nH]1,89.5
Cc1cc(C)c(C2=C(NC(=O)C(C)C)C3(CCCC3)OC2=O)c(C)c1,0.406
CCOC(=O)C(CC)c1cc(C#N)c(C#N)cc1O (centres unmarked),53
COC(=O)c1ccccc1C1CCN(C(=O)OC(C)(C)C)CC1,6.38
Cc1cc(C)c(C(=O)Nc2ccc3c(c2)n(C)c(=O)n3C)c(=O)[nH]1,85.4
O=C(c1ccoc1)N1CC(c2nnc(-c3ccncc3)o2)C2(CCOCC2)C1 (centres unmarked),> 100
CCc1cc(N2CC[C@H](F)C2)n2nc(C)c(C)c2n1,12.3
[O-][S+](Cc1ccn(Cc2ccccc2Cl)n1)c1nc2cc(Cl)ccc2[nH]1 (centres unmarked),21.9
Cc1cc(C)cc(N(C)S(=O)(=O)c2ccsc2-c2nc(-c3cccnc3)no2)c1,36.1
Cc1ccsc1-c1cn(C(C(=O)N(C)C)c2ccccc2)nn1 (centres unmarked),67.8
O=C(Nc1cc(Oc2ncccn2)c(Cl)cc1F)Oc1ccccc1,37.8
Cc1csc(C2=C(O)CN(CCC(c3ccccc3)c3ccccc3)C2=N)n1,0.761
CC1=CC(=O)c2ccccc2C1=O,> 99
Cc1nn(CC(=O)N2c3c(c(C)nn3C)N(C(=O)OC(C)(C)C)CC2C)c(C)c1Cl (centres unmarked),4.86

# Block 4 — read-out: cell-free assay; technique: competition with immobilised ligand; concentration: 1 µM
# Compound: O=C1CCc2cc(Nc3cc(OC4CCOCC4)c([N+](=O)[O-])cc3Cl)ccc2N1
target,remaining binding
"RET (Homo sapiens, UniProt P07949)",89%
"IRAK1 (Homo sapiens, UniProt P51617)",98%
"Ribosomal protein S6 kinase alpha-5, N-terminal kinase domain (RPS6KA5, Homo sapiens, UniProt O75582)",86%
"PAK4 (Homo sapiens, UniProt O96013)",100%
"EPHB4 (Homo sapiens, UniProt P54760)",100%
"Myosin-IIIa (MYO3A, Homo sapiens, UniProt Q8NEV4)",99%
"LCK (Homo sapiens, UniProt P06239)",100%
"Ribosomal protein S6 kinase alpha-1, C-terminal kinase domain (RPS6KA1, Homo sapiens, UniProt Q15418)",100%
"PDPK1 (Homo sapiens, UniProt O15530)",100%
"ULK3 (Homo sapiens, UniProt Q6PHR2)",100%
"MAPK7 (Homo sapiens, UniProt Q13164)",100%
"NIM1K (Homo sapiens, UniProt Q8IY84)",100%
"MARK2 (Homo sapiens, UniProt Q7KZI7)",71%
"EGFR (Homo sapiens, UniProt P00533)",100%
"OXSR1 (Homo sapiens, UniProt O95747)",83%
"PRKD2 (Homo sapiens, UniProt Q9BZL6)",85%
"PRKAA2 (Homo sapiens, UniProt P54646)",100%
"TLK1 (Homo sapiens, UniProt Q9UKI8)",92%
"CDK8 (Homo sapiens, UniProt P49336)",100%
"MAP2K3 (Homo sapiens, UniProt P46734)",86%
"TSSK3 (Homo sapiens, UniProt Q96PN8)",100%
"Ribosomal protein S6 kinase alpha-1, N-terminal kinase domain (RPS6KA1, Homo sapiens, UniProt Q15418)",100%
"SIK3 (Homo sapiens, UniProt Q9Y2K2)",75%
"IRAK4 (Homo sapiens, UniProt Q9NWZ3)",100%
"Tyrosine-protein kinase ABL1, phosphorylated (ABL1, Homo sapiens, UniProt P00519, F317L)",88%

# For quick reference, copied from above (block 4):
target,remaining binding
"IRAK1 (Homo sapiens, UniProt P51617)",98%
"Tyrosine-protein kinase ABL1, phosphorylated (ABL1, Homo sapiens, UniProt P00519, F317L)",88%
"Myosin-IIIa (MYO3A, Homo sapiens, UniProt Q8NEV4)",99%
"TLK1 (Homo sapiens, UniProt Q9UKI8)",92%
"MARK2 (Homo sapiens, UniProt Q7KZI7)",71%
"PDPK1 (Homo sapiens, UniProt O15530)",100%
"PRKD2 (Homo sapiens, UniProt Q9BZL6)",85%
"OXSR1 (Homo sapiens, UniProt O95747)",83%
